Measurements gathered from unrelated publications.
Lines come from different studies, so protocols differ. ± marks the error that the study gave.
UniProt Q06520, sequence (whole entry, looked up): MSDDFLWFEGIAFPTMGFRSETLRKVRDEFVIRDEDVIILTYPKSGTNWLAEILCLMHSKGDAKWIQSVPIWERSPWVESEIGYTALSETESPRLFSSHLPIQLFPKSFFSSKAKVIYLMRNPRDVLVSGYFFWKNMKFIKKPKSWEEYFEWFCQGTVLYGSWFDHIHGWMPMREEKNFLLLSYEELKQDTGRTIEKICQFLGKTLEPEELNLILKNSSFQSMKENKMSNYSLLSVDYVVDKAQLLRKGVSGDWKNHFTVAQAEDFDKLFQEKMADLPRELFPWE

COc1cc(C(=O)NCCOCCOCCOCCNC(=O)c2ccc([18F])nc2)ccc1NC(=O)C1NC(CC(C)(C)C)C(C#N)(c2ccc(Cl)cc2F)C1c1cccc(Cl)c1F (centres unmarked)  tracer uptake (SJSA-1 tumour model; host not given, tumour; 2 h, tumour-bearing): 0.65 %ID/g
COc1ccc(CNc2nc(N3CCC[C@H]3CO)ncc2C(=O)NN)cc1Cl  revertant count (Salmonella typhimurium; TA1535; 250 µg/plate, 48 h): 55 ± 2
CCC(=O)N(C)c1ccc(Cl)c(Cl)c1  revertants (Salmonella typhimurium; Ames test; TA98; 0.05 mg/plate, with rat liver S9): 13 ± 3.1 revertants/plate
CC[C@H](C)C(=O)N1CCC(NC(=O)Nc2ccc(OC(F)(F)F)c(F)c2)CC1  subjects with any TEAE (healthy volunteers; oral, 24 mg single dose, 14 (unit not given)): 66.7%
CN(C)CC1CCCCC1(O)c1cccc(O)c1 (centres unmarked)  efflux ratio (Caco-2 TC7; 3 h, pH 6.8 apical, 7.4 basolateral, range over 1 to 100 µM): 1.8 to 2.3
N[C@]1(c2ccccc2Cl)CCC[C@H](O)C1=O  AUC(0-inf) (Wistar rat, plasma; oral, 20 mg/kg): 13600 ± 1660 ng·h/mL
C[C@]12CC[C@H](O)CC1CCC1C2[C@H](O)C(=O)[C@]2(C)[C@@H](c3ccc(=O)oc3)CC[C@]12O (some centres unmarked)  activity ratio (SULT2A1 (Homo sapiens, UniProt Q06520); sulfation, substrate; human kidney cytosol; pH 7.4; baseline: intestine cytosol over kidney cytosol): 8.7 fold
CSCC[C@@H]1NC(=O)[C@@H]2CSSC[C@H](NC(=O)[C@H](CO)NC(=O)[C@H](C)N)C(=O)N[C@@H](CCCNC(=N)N)C(=O)N[C@@H]([C@@H](C)O)C(=O)N3CCC[C@H]3C(=O)N[C@@H](CCCCN)C(=O)N[C@@H](CC(=O)O)C(=O)N[C@H]3CSSC[C@H](NC(=O)[C@H](CCCCN)NC(=O)[C@H](CCCNC(=N)N)NC(=O)[C@H](CC(N)=O)NC1=O)C(=O)N[C@@H](CCCCN)C(=O)N[C@H]1CSSC[C@H](NC(=O)[C@@H]4CCCN4C(=O)[C@H](CC(=O)O)NC(=O)[C@H](C)NC3=O)C(=O)N[C@@H](C)C(=O)N[C@@H](CCCCN)C(=O)N[C@@H](CCC(=O)O)C(=O)N[C@@H]([C@@H](C)O)C(=O)NCC(=O)N[C@@H](CSSC[C@@H](C(N)=O)NC(=O)[C@H](CCCNC(=N)N)NC(=O)[C@H](CC(N)=O)NC1=O)C(=O)N1CCC[C@H]1C(=O)N[C@@H](Cc1ccc(O)cc1)C(=O)NCC(=O)N[C@@H](CCCCN)C(=O)N2  blood urea nitrogen (DA rat, pristane-induced arthritis, serum; subcutaneous, 0.1 mg/kg once weekly, 21 days): 13.6 mg/dL
COc1ccc(CNc2nc(N3CCC[C@H]3CO)ncc2C(=O)NNC(=O)c2cnc(N3CCC[C@H]3CO)nc2NCc2ccc(OC)c(Cl)c2)cc1Cl  revertant count (Salmonella typhimurium; TA97a; 62.5 µg/plate, 48 h): 142 ± 6
C[C@@](O)(C(F)F)[C@H](NC(=O)c1ccc(C#CC#CC2CC2)cc1)C(=O)NO  Cmax (dog, plasma; intravenous, 30 mg/kg): 15100 ng/mL
CN[C@](C)(C[18F])C(=O)O  tracer uptake (DU-145 tumour model; host not given, tumour; 1 h, tumour-bearing): 4.1 %ID/g
